Experimental data of several laboratories.
Protocols differ between the studies behind these lines. Numbers after ± are the reported error.
Organism: Trypanosoma cruzi

C=C1C(=O)O[C@@H]2C[C@@H](C)[C@@H]3C=CC(=O)[C@@]3(C)[C@@H](O)[C@H]12 — IC50 (cell growth, [3H]thymidine uptake; RA strain, epimastigotes; 72 h): 1.11 µM
O=P(O)(O)C(O)(Cc1cccnc1)P(=O)(O)O — IC50 (parasite growth; Vero; 72 h, intracellular, amastigote): 55 µM
CCCCCCCC[S+](C)CC(P(=O)(O)O)P(=O)(O)O (centres unmarked) — IC50 (intracellular amastigote growth; Vero; 72 h): 32 µM
CCCC(F)(P(=O)(O)O)P(=O)(O)O — IC50 (Vero cells, intracellular amastigotes; day 3 post-infection): > 10 µM
CC[C@@]1(O)C(=O)OCc2c1cc1n(c2=O)Cc2cc3ccccc3nc2-1 — IC50 (intracellular amastigote growth; 3T3 fibroblasts, Tulahuen; 48 h, re-sourced solid sample): 0.09 ± 0.02 µM
CCCCCC(F)(P(=O)(O)O)P(=O)(O)O — IC50 (Vero cells, intracellular amastigotes; day 3 post-infection): > 10 µM
Nc1nc(N)nc(Nc2ccc([As]3SCC(CO)S3)cc2)n1 (centres unmarked) — IC50 (parasite growth, resazurin; 48 h, epimastigote): 0.01 µM
O=C(Cn1ccnc1[N+](=O)[O-])c1ccc(-c2ccccc2)cc1 — IC50 (parasite growth; Tulahuen C4 amastigotes): 4 to 60 µM
Clc1cc(Br)ccc1-c1ccc(CNCCN2CCOCC2)o1 — EC50 (parasite growth; C2C12, CA-I/72; 72 h): < 1000 nM
CCCCC(F)(P(=O)(O)O)P(=O)(O)O — IC50 (Vero cells, intracellular amastigotes; day 3 post-infection): > 10 µM
C=C1C(=O)O[C@@H]2[C@H]1CC[C@H](C)[C@@]1(O)C=CC(=O)[C@@]21C — IC50 (cell growth, [3H]thymidine uptake; RA strain, epimastigotes; 72 h): 5.8 µM
CCC(F)(P(=O)(O)O)P(=O)(O)O — IC50 (Vero cells, intracellular amastigotes; day 3 post-infection): > 10 µM
CCCCCCCCCCSCC(P(=O)(O)O)P(=O)(O)O — IC50 (intracellular amastigote growth; Vero; 72 h): 22.4 µM
O=C(Cn1ccnc1[N+](=O)[O-])NCc1ccccc1 — survival (Y, male Swiss mouse; oral, 100 mg/kg/day, 5 to 9 dpi, followed to 56 dpi): 80%

Excerpt of the above:
O=C(Cn1ccnc1[N+](=O)[O-])c1ccc(-c2ccccc2)cc1 — IC50 (parasite growth; Tulahuen C4 amastigotes): 4 to 60 µM
Clc1cc(Br)ccc1-c1ccc(CNCCN2CCOCC2)o1 — EC50 (parasite growth; C2C12, CA-I/72; 72 h): < 1000 nM
